{"data": "Measured values gathered from unrelated publications", "target": "Mitogen-activated protein kinase kinase kinase 13 (MAP3K13, Homo sapiens, UniProt O43283)", "note": "Protocols differ between the studies behind these lines."}
{"SMILES": "Nc1ncc2c(n1)-c1c([nH]c3ccc(C4=CCOCC4)cc13)CCC2", "assay": "binding, competition with immobilised ligand", "conditions": "1 µM", "endpoint": "remaining binding", "result": "100%"}
{"SMILES": "CNC1C[S+]2CC[S+]3CC[S+](C1)[Ru-4]321([N]=C=S)[n]2c3ccc(OC)cc3c3c4c(c5cc(F)c[n+]1c5c32)C(=O)NC4=O (stereo not shown)", "assay": "KinomeScan", "conditions": "0.1 µM", "scale": "reference: untreated", "endpoint": "remaining binding", "result": "98%"}
{"SMILES": "COc1cc(Nc2nc(C)cc(-c3cnn4nc(OC)ccc34)n2)cc(C(F)(F)F)c1", "assay": "KINOMEscan", "conditions": "1 µM, LZK", "scale": "reference: DMSO", "endpoint": "remaining binding", "result": "95%"}
{"SMILES": "CC(C)=CC1OC(C)(C)C2C=C3C(=O)C(Cl)=CC(O)C3C3C(O)C4OC4C(=O)C132 (stereo not shown)", "assay": "cell-free assay, competition with immobilised ligand", "conditions": "10 µM", "endpoint": "remaining binding", "result": "84%"}
{"SMILES": "C=CC(=O)N1CCCC(n2c(=O)c3ncccc3n(Cc3ccc(Oc4ccccc4)cc3)c2=O)C1 (stereo not shown)", "assay": "cell-free assay, competition with immobilised ligand", "conditions": "1 µM", "endpoint": "remaining binding", "result": "74%"}
{"SMILES": "CNC(=O)C1CCN(c2cc(C)c(F)cc2NC(=O)c2ccc(-c3cc(O)ccc3C)c(C)c2)CC1", "assay": "binding, competition with immobilised ligand", "conditions": "1 µM", "endpoint": "remaining binding", "result": "100%"}
{"SMILES": "CCn1cc(C(=O)O)c(=O)c2c(N)c(F)c(NC3CCCCC3)cc21", "assay": "kinase activity", "conditions": "0.1 µM, added: ATP at Km", "endpoint": "inhibition", "result": "16.3%"}
{"SMILES": "Cc1ccc(-c2c(/C=C(\\C#N)C(=O)NC(C)C)n(CCCO)c3ncnc(N)c23)cc1", "assay": "cell-free assay, competition with immobilised ligand", "conditions": "1 µM", "endpoint": "remaining binding", "result": "96%"}
{"SMILES": "COc1cc(Nc2nccc(-c3cnn4nc(OC)ccc34)n2)cc(C(F)(F)F)c1", "assay": "binding, competition with immobilised ligand", "conditions": "1 µM", "endpoint": "remaining binding", "result": "100%"}
{"SMILES": "COc1c(Cl)cccc1Nc1c(-c2ccncc2C#C[C@@]2(C)CCCN2C(=O)/C=C/CN(C)C)[nH]c2c1C(=O)NCC2", "assay": "binding, competition with immobilised ligand", "conditions": "3 µM", "endpoint": "remaining binding", "result": "77%"}
{"SMILES": "CCN1CCN(Cc2ccc(C(=O)Nc3ccc(C)c(NCc4cnc5[nH]ccc5c4OC)c3)cc2C(F)(F)F)CC1", "assay": "binding, competition with immobilised ligand", "conditions": "1 µM", "endpoint": "remaining binding", "result": "98%"}
{"SMILES": "C=CC(=O)N1CCc2ccc(-n3c(=O)ccc4cnc5ccc(-c6cnn(C)c6)cc5c43)cc21", "assay": "KINOMEscan", "conditions": "1 µM", "scale": "reference: DMSO control", "endpoint": "remaining binding", "result": "100%"}
{"SMILES": "Cc1cnc2nc1Nc1cccc(c1)COC/C=C/COCc1cc(ccc1OCCN1CCOCC1)N2", "assay": "cell-free assay", "conditions": "0.1 µM", "endpoint": "remaining signal", "result": "94%"}
{"note": "Some of these lines once more:"}
{"SMILES": "C=CC(=O)N1CCCC(n2c(=O)c3ncccc3n(Cc3ccc(Oc4ccccc4)cc3)c2=O)C1 (stereo not shown)", "assay": "cell-free assay, competition with immobilised ligand", "conditions": "1 µM", "endpoint": "remaining binding", "result": "74%"}
{"SMILES": "CNC(=O)C1CCN(c2cc(C)c(F)cc2NC(=O)c2ccc(-c3cc(O)ccc3C)c(C)c2)CC1", "assay": "binding, competition with immobilised ligand", "conditions": "1 µM", "endpoint": "remaining binding", "result": "100%"}
